Published values pooled from the literature.
Lines come from different studies, so protocols differ. Values joined by “and” are separate records of one study, mostly repeats; a detail may differ. Numbers after ± are the reported error.
UniProt P06873, sequence (whole entry, looked up): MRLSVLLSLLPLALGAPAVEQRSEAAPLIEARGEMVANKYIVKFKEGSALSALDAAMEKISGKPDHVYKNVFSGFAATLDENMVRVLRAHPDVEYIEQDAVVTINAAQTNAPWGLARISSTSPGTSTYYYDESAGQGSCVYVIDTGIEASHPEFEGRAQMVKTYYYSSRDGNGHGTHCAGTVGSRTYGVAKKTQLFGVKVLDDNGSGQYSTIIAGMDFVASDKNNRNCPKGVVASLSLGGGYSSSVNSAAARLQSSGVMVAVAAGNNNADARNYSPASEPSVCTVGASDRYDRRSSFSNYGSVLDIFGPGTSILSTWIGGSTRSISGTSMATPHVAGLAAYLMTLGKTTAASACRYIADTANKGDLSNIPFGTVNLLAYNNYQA

| Structure (SMILES) | tested on | test | test system | setting | scale | endpoint | value |
| --- | --- | --- | --- | --- | --- | --- | --- |
| COc1cccc(-c2n[nH]c(SCc3ccccn3)n2)c1OC | Salmonella typhimurium | Ames test, preincubation | TA100 | 0.031 mg/plate, with rat liver S9 | – | revertant colonies per plate | 146 |
| OCc1ncc2n1-c1ccc(Cl)cc1C(c1ccccc1F)=NC2 | CYP3A4 (human) | – | human, plasma | oral, 2 mg midazolam, Day 14, with: encorafenib at steady state | baseline: 1-hydroxymidazolam over midazolam | metabolite to parent Cmax ratio | 22.2 |
| CC1(C)[C@H](C=C(Cl)Cl)[C@H]1C(=O)OCc1cccc(Oc2ccccc2)c1 | human cytosolic CES1 | IVIVE from expressed enzymes | human, liver, in vivo scaled | 0.1 µM, age-specific | – | enzyme contribution to CLint | 33% |
| Nc1ncnc2c([C@@H]3N[C@H](CO)[C@@H](O)[C@H]3O)c[nH]c12 | HeLa | – | – | 3.1 µM | – | cell number | 5960 and 5100 |
| COc1cc2c(Oc3ccc4[nH]c(C)cc4c3F)ccnc2cc1OCC1(N)CC1 | – | – | paediatric recurrent refractory sarcoma | 8 mg/kg | – | grade 1 or 2 ALP elevation | 26.7% |
| CC(=O)N1CCC(C(=O)N2CCN3C(=O)c4cc(-c5ccccc5)ccc4NC(=O)C3C2)CC1 (stereo not shown) | Salmonella typhimurium | – | TA1537 | 1581 µg/plate, with: rat liver S9 | – | revertants per plate | 21.5 |
| O=[N+]([O-])c1ccc(N2CCN(CCC(O)c3ccc(F)cc3)CC2)c(C(F)(F)F)c1 (stereo not shown) | Salmonella typhimurium | genotoxicity, SOS/umu test | TA1535/pSK1002 | 0.002 mg/mL, 4 h, with S9, lower range | – | induction factor | 0.9 |
| OC(CN1CCC(Cc2ccc(F)cc2)CC1)c1ccc(Cl)cc1 (stereo not shown) | Plasmodium falciparum | – | 3D7 | – | – | IC50 | 1580 nM |
| CCCC[C@H](NC(C)=O)C(=O)N[C@@H](CO)C(=O)N[C@H](C(=O)N1CCC[C@H]1C(=O)N[C@@H](C)C(=O)N[C@@H](CCCNC(=N)N)C(=O)N[C@@H](CCCNC(=N)N)C(=O)N[C@@H](CCCNC(=N)N)C(=O)N[C@@H](CC(C)C)C(=O)N[C@@H](CCCC)C(=O)N[C@@H](CCCNC(=N)N)C(=O)N[C@@H](CC(=O)O)C(=O)N[C@@H](Cc1ccccc1)C(=O)N[C@@H](CCCCN)C(=O)N[C@@H](CCCNC(=N)N)C(=O)N[C@@H](CC(C)C)C(=O)N[C@@H](CCC(N)=O)C(N)=O)[C@@H](C)O | Proteinase K (PROK, Engyodontium album, UniProt P06873) | proteolytic stability, LC-MS | – | 25 µM, 41.0 min, pH 7.4 | – | remaining intact peptide | 22.7% |
| CO[C@H]1C[C@@H]2CC[C@@H](C)[C@@](O)(O2)C(=O)C(=O)N2CCCC[C@H]2C(=O)O[C@H]([C@H](C)C[C@@H]2CC[C@@H](OC(=O)NCCOCCOCCOCCOCCOCCOCCOCCOCCC(=O)N3CCc4cc(Cn5nc(-c6ccc7oc(N)nc7c6)c6c(N)ncnc65)ccc4C3)[C@H](OC)C2)C[C@@H](O)[C@H](C)/C=C(\C)[C@@H](O)[C@@H](OC)C(=O)[C@H](C)C[C@H](C)/C=C/C=C/C=C/1C | – | – | patients with advanced solid tumours | intravenous, dose not given, any grade | – | incidence of Headache TRAE | 15.8% |
| Cc1cc(C(=O)NC(C)(C)COc2cccc3c2C(N)=NS(=O)(=O)N3)cc(C)n1 | Salmonella typhimurium | Ames test, initial | TA1537 | 5.00 µg/plate | baseline: solvent control | revertant ratio | 1 |
| [Cl-].[Cl-].[Pt+2].[Ru+2].c1ccc(-c2nc3cc4ccccc4cc3nc2-c2ccccn2)nc1.c1cnc2c(c1)ccc1cccnc12.c1cnc2c(c1)ccc1cccnc12 | Danio rerio | – | embryos | 75 µM, 24 h | – | survival rate | 80 ± 4.7% |
| O=c1ccc2ccccc2o1 | NHEK | cell membrane permeability | – | concentration not given, 1 h, apoptosis, necrosis panel | – | chance response | 0.46% |

Repeated from above:
| Structure (SMILES) | tested on | test | test system | setting | scale | endpoint | value |
| --- | --- | --- | --- | --- | --- | --- | --- |
| OCc1ncc2n1-c1ccc(Cl)cc1C(c1ccccc1F)=NC2 | CYP3A4 (human) | – | human, plasma | oral, 2 mg midazolam, Day 14, with: encorafenib at steady state | baseline: 1-hydroxymidazolam over midazolam | metabolite to parent Cmax ratio | 22.2 |
